Published values of several laboratories.
Numbered parts are unrelated; each lists some results of a single study. Positions count from the first letter of the parent shown.

Set 1
Target: Ras GTPase-activating protein-binding protein 1, C-terminal RGG region (G3BP1, Homo sapiens, UniProt Q13283)
UniProt Q13283, sequence (whole entry, looked up): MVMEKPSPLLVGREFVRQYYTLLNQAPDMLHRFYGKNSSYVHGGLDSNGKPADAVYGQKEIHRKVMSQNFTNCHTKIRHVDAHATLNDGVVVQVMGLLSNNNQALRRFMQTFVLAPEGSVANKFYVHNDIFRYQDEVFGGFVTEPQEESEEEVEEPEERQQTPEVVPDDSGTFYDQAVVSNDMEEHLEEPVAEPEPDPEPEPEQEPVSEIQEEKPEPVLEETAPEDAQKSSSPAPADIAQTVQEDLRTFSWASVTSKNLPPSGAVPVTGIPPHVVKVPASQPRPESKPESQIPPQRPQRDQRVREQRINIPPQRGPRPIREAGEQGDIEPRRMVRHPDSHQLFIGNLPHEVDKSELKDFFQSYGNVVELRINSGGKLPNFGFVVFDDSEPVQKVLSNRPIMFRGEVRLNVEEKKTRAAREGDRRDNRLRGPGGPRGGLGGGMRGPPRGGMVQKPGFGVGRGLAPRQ
Technique: RNA Bind-n-Seq
Molecule type: RNA
Medium: in vitro
Concentration: 1 µM
Setting: whole 134-nt RNA, ends assumed
Together with: 150 mM KCl
Reference: input library
Direction: higher = stronger binding
Shared flanks, not repeated: GGGAGUUCUACAGUCCGACGAUC … UGGAAUUCUCGGGUGUCAAGG
`UCCUGUGCUACACAUCGUAUGUACCGAAUCGGGGCCCCCGGGGCCCCCGGCCCCCGGGGAAAGUAUUAUGUUACGCCGUUCGGAUCUGCA` has a log2 enrichment of -1.85.
`UCCUCAAGUCCUGUGCUACACAUCGUAUGUACCGAAUCGGGGUGGUGGUGGGAAAGUAUUAUGUUACGCCGUUCGGAUCUGCACUUCCAG` gave a log2 enrichment of 0.274.
The log2 enrichment of `UAACUUUAGAGGAGGAUCUGAUGGAUAUGGCAGUGGACGUGGAUUCGGGGAUGGCUAUAAUGGGUAUGGAGGAGGACCUGGAGGUGGCAA` is reported as -1.03.
`GUCCUGUGCUACACAUCGUAUGUACCGAAUCGGGCCCCCGGCCCCCGGGCCCCCGGGGAAAGUAUUAUGUUACGCCGUUCGGAUCUGCAC` has a log2 enrichment of -1.81.
For `CAAGUCCUGUGCUACACAUCGUAUGUACCGAAUCGUGUGUGUGUGUGUGUGUGUGAAAGUAUUAUGUUACGCCGUUCGGAUCUGCACUUC`, the log2 enrichment was 1.18.
The log2 enrichment of `CCUGUGCUACACAUCGUAUGUACCGAAUCGGGUUUUUUGGGUUUUUUGGGGUUUUUUGGGAAAGUAUUAUGUUACGCCGUUCGGAUCUGC` is reported as -1.24.
`UAACUUUAGAGGAGGAUCUGACGGAUAUGGCAGUGGACGUGGAUUUGGGGAUGGCUAUAAUGGGUAUGGAGGAGGACCUGGAGGUGGCAA` has a log2 enrichment of -1.61.
For `AAGUCCUGUGCUACACAUCGUAUGUACCGAAUCGGGAGGGAAAAAAAGGGAAAGGGAAAGUAUUAUGUUACGCCGUUCGGAUCUGCACUU`, the log2 enrichment was 0.474.
`UCCUCAAGUCCUGUGCUACACAUCGUAUGUACCGAAUCGGUGGAAAGGAGGAAAGUAUUAUGUUACGCCGUUCGGAUCUGCACUUCCAGC` has a log2 enrichment of -1.12.
The log2 enrichment of `UGGGAGGUGGAUUUUGUAUAUUUUUUUAGCUCAUUUCCAGGGGUGGGAAUUUUUUUUUAAUAUGUGUCAUGAAUAAAGUUGUUUUUGAAA` is reported as 3.62.
`ACCAUGCAGGUGGGCAUCUUUGGGAAGUGGGGCAAGGGGGGGAUAGGGAGGGGGGUAACACUUUAAAAACAGGUGGUCCCAGGUCGUUUC` has a log2 enrichment of -1.
`UGGCCCUGGUGGCAUGCGGGGAGGAAGAGGUGGCCUCAUGGAUCGUGGUGGUCCCGGUGGAAUGUUCAAAGGUGGCCGUGGUGGAGACAG` has a log2 enrichment of 3.64.
With `CCUGUGCUACACAUCGUAUGUACCGAAUCGGGGAAAAAAAGGGGAGGGGAAAAAAAGGGGAAAGUAUUAUGUUACGCCGUUCGGAUCUGC` the log2 enrichment was 0.208.
`UUCCUCAAGUCCUGUGCUACACAUCGUAUGUACCGAAUCGGUGGGUGGUGGAAAGUAUUAUGUUACGCCGUUCGGAUCUGCACUUCCAGC` gave a log2 enrichment of -0.344.

Set 2
Target: CCNA1, cyclin fold, Cln2 fusion (human)
Technique: yeast growth competition, sequencing
Medium: yeast
Setting: weak parent motif
Reference: not given
Direction: higher = stronger binding
Starting sequence: INSM1 docking peptide (human); PKAIRKLHFEDEV; partner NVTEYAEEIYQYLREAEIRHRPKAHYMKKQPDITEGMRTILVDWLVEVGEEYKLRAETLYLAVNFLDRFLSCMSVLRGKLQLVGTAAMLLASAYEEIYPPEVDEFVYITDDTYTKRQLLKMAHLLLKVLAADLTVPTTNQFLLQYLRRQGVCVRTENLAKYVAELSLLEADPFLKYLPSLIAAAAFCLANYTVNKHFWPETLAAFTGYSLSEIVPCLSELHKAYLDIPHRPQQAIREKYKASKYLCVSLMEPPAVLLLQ
For `PKAIRKLHHEDEV [F9H]`, “normalised enrichment score” read 0.313.
`PKHIRKLHFEDEV [A3H]` — result for “normalised enrichment score”: 0.824.
Under “normalised enrichment score”, `PKAIRKLHFEAEV [D11A]` is recorded as 0.765.
For `PKAIYKLHFEDEV [R5Y]`, “normalised enrichment score” read -0.0416.
For `PKAIRKLYFEDEV [H8Y]`, “normalised enrichment score” read 0.816.
`PTAIRKLHFEDEV [K2T]` — result for “normalised enrichment score”: 0.941.
Under “normalised enrichment score”, `PKAIAKLHFEDEV [R5A]` is recorded as -0.233.
For `PKAIRKLHNEDEV [F9N]`, “normalised enrichment score” read -0.0139.
`PKAIRKLPFEDEV [H8P]` — result for “normalised enrichment score”: 0.2.

Set 3
Target: RNA binding protein fox-1 homolog 2, RRM domain, GST-SBP tag (RBFOX2, Homo sapiens, UniProt O43251-10, residues 100-194)
Technique: RNA Bind-n-Seq
Molecule type: RNA
Medium: in vitro
Concentration: 365 nM
Setting: natural RNA segment, single round, ends assumed
Reference: no-protein control
Direction: higher = stronger binding
Shared flanks, not repeated: GGGAGUUCUACAGUCCGACGAUC … UGGAAUUCUCGGGUGCCAA
Residues (chain): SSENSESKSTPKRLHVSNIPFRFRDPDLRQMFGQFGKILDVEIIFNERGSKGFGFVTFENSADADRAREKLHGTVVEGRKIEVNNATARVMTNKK
For `CCACGCCCGGCUAAUUUUUAUAUUUUUGGUAGAGAUGGGGUUUCACCAUGCUGGCCAGGCUGGUCUCGAACUCCUGACCUCAGGUGAUCCCCCCCACCUCAGCCUCCCAA`, “RBNS enrichment (R)” read 0.259.
Under “RBNS enrichment (R)”, `AAUCUGCUUGGUAAAUGUCUCCUGGGAAAGGCAGAACCCAUAACUUAAAGACACGCACAGUCCCUUCCAUUGUCCCACAGGAGUUCCUCUGGCUGAGUAUGCCAUCCAGA` is recorded as 0.576.
For `AGUGUCUUUCUUUGGUGCCUUUCCUGUUCAGCAUUCUCAGCCUGUGGCAGUAAAGAGAAACUUUGCUACACAACAAAAAGCUGCUAAAUCUCCCUCUAUUUUUUUAAAAU`, “RBNS enrichment (R)” read 0.532.
`UGGCAGUCCUGGUCCUUCCACUGUGCACCUGCGCGGAGGACGCGACCUCAGUUGUCCUGCCCUGUGGAAUGGGCUCAAGGUUCCUGAGACACCCGAUUCCUGCCCAAACA`: “RBNS enrichment (R)” 0.181.
`UGUCCUGCCGCCCGGCUCAGUCGGCCAGACUUCCUCUAGGAGUGGUGCUGCUACCUUGUAUGUUUACAUAAUGCUUUAGCCCAAGGACACAUCACCAACCCAUGGACUCG`: “RBNS enrichment (R)” 0.292.
`UGCUAGGUGAGUUUCAUUCUGGAAAAGGAGAAAGAUAGUGAUGUCUAGAUGCCUGUAGCCUGUGGGGAAAAGCCAACUAGAAAACAACUGGCGUUUAUCAGGUACCUUAG` — result for “RBNS enrichment (R)”: 0.451.
`CUGAAGAACUUUGGGGGGAAUUUUGUACUUUUUUCCUGUGUAAAUAUUGGACUUUUUUGAGCUUUAUCGUGGUUGUUAAUUUGAAGUAAUAAAGUAGAAAAGAUAAAGUG` — result for “RBNS enrichment (R)”: 1.15.
`GUUUUGAAACAGAAACCAGUACUCAAUAAUGUAGUGUCAGUGUCCGUUUGGUACGUAUCAGUGAAUUAUUGGACAGUUAGCUUAUAACUUAUAGGCAGUCACUAUAAAUU`: “RBNS enrichment (R)” 0.296.
`AACAAAUGUGUAGGUGGCUGGAGAAAUGGCUUAGUGGUUAAGAGCUCGGUCCUGAGUUCAAUUCCCAGCAACCACAUGGUGGCUCAUAGCCAUCUGUAAUGGGAUUUGGU` — result for “RBNS enrichment (R)”: 0.589.
Under “RBNS enrichment (R)”, `CCCUGGCCUUGCUAUGAGGGAAAGAUUGAAUAAGCAGCGCACAAGGCAUUCUGGUGCACUAACUUGUGCACACACCAGCUCCAGCCUUUGCAGAAUGACAGCUCUUUGUU` is recorded as 2.11.
Under “RBNS enrichment (R)”, `GCCAUGCAGAGCCCUGGCCGCUGGAGACUCUUAAAGCCCCCACAGCCCUCCAGGUCCUCCAGCUCUGUCAGAUGGAGGGCUCUCGGGCCUAGAUCCCACUGGUAGGCCUC` is recorded as 0.397.
`ACCCACUAGGAUUUGUUUAGGUGCCCAUUGCAUCUUUUUGUGCUAUGGAGUUGUUUACAUUAAGCAUGACCGAACGAGAGACAAUACUAUUUCCCACAGGAGUCCAUUGG` — result for “RBNS enrichment (R)”: 3.54.

Mixed results
`PhoQ, residues 284 288 289 292 302 303 GLASVI` gave a fold induction of 11.4 (PhoP, residues 12 14 15 18 19 VQALL (Escherichia coli, UniProt P23836); Sort-seq, measured: YFP reporter; E. coli; PhoQ-PhoP variant library, together with: 10 µM Mg2+; reference: high Mg2+ state, higher = stronger signaling).

Repeated from above (set 1):
`UAACUUUAGAGGAGGAUCUGACGGAUAUGGCAGUGGACGUGGAUUUGGGGAUGGCUAUAAUGGGUAUGGAGGAGGACCUGGAGGUGGCAA` has a log2 enrichment of -1.61.
For `AAGUCCUGUGCUACACAUCGUAUGUACCGAAUCGGGAGGGAAAAAAAGGGAAAGGGAAAGUAUUAUGUUACGCCGUUCGGAUCUGCACUU`, the log2 enrichment was 0.474.
`UCCUCAAGUCCUGUGCUACACAUCGUAUGUACCGAAUCGGUGGAAAGGAGGAAAGUAUUAUGUUACGCCGUUCGGAUCUGCACUUCCAGC` has a log2 enrichment of -1.12.
The log2 enrichment of `UGGGAGGUGGAUUUUGUAUAUUUUUUUAGCUCAUUUCCAGGGGUGGGAAUUUUUUUUUAAUAUGUGUCAUGAAUAAAGUUGUUUUUGAAA` is reported as 3.62.
`ACCAUGCAGGUGGGCAUCUUUGGGAAGUGGGGCAAGGGGGGGAUAGGGAGGGGGGUAACACUUUAAAAACAGGUGGUCCCAGGUCGUUUC` has a log2 enrichment of -1.
